{"data": "Assay results from different studies", "organism": "Escherichia coli", "note": "Numbers after ± are the reported error."}
{"SMILES": "CCCCCCCC(=O)N[C@@H](CCCCNS(=O)(=O)c1cccc2c(N(C)C)cccc12)C(=O)N[C@H](C(=O)N[C@@H](CCN)C(=O)N[C@H]1CCNC(=O)[C@H]([C@@H](C)O)NC(=O)[C@H](CCN)NC(=O)[C@H](CCN)NC(=O)[C@H](CC(C)C)NC(=O)[C@@H](Cc2ccccc2)NC(=O)[C@H](CCN)NC1=O)[C@@H](C)O", "assay": "isothermal titration calorimetry", "setting": "concentration not given, 37 °C, second set of sites", "quantity": "entropy change", "value": "-3.3 kcal/mol"}
{"SMILES": "CCCCCCCCCCCCCC(=O)N[C@@H](Cc1c[nH]c2ccccc12)C(=O)N[C@@H](CCCCN)C(=O)N[C@@H](CCCCN)C(=O)N[C@@H](CCCCN)C(=O)N[C@@H](CCCCN)C(N)=O", "system": "K12", "quantity": "MBC", "value": "64 µg/mL"}
{"SMILES": "CN1CC(=O)N=C1N.C[C@H](CCC(=O)O)[C@H]1CC[C@H]2[C@@H]3[C@@H](O)C[C@@H]4C[C@H](O)CC[C@]4(C)[C@H]3CC[C@]12C", "system": "TISTR 117", "setting": "1 mg per disc, 18 to 24 h, 37 °C, 6 mm disc", "quantity": "inhibition zone diameter", "value": "7.1 ± 0.1 mm"}
{"SMILES": "CC[C@H](C)[C@H](NC(=O)[C@H](CCCCN)NC(=O)[C@H](CCCCN)NC(=O)[C@H](CC(C)C)NC(=O)[C@H](CCCCN)NC(=O)[C@H](CCC(=O)O)NC(=O)[C@H](CCCCN)NC(=O)[C@@H](NC(=O)[C@H](CCCCN)NC(=O)[C@H](CC(N)=O)NC(=O)[C@H](CCCNC(=N)N)NC(=O)[C@H](Cc1ccccc1)NC(=O)[C@H](CCCCN)NC(=O)[C@H](CCCNC(=N)N)NC(=O)[C@H](CC(C)C)NC(=O)[C@H](CCCNC(=N)N)NC(=O)[C@H](CCCCN)NC(=O)[C@H](CCCNC(=N)N)NC(=O)[C@H](CC(C)C)NC(=O)[C@@H](N)CC(C)C)[C@@H](C)CC)C(=O)NCC(=O)N[C@@H](CCC(N)=O)C(=O)N[C@@H](CCCCN)C(=O)N[C@H](C(=O)N[C@@H](CCC(N)=O)C(=O)NCC(=O)N[C@@H](Cc1ccccc1)C(=O)N[C@H](C(=O)N1CCC[C@H]1C(=O)N[C@@H](CCCCN)C(=O)N[C@@H](CC(C)C)C(=O)N[C@H](C(=O)N1CCC[C@H]1C(=O)N[C@@H](CCCNC(=N)N)C(=O)N[C@H](C(=O)N[C@@H](CCC(=O)O)C(=O)N[C@@H](CO)C(=O)O)[C@@H](C)O)C(C)C)C(C)C)[C@@H](C)CC", "assay": "inhibition zone", "system": "DH5α", "quantity": "lethal concentration", "value": "2.21 µM"}
{"SMILES": "CC[C@H](C)[C@H](NC(=O)[C@H](CO)NC(=O)[C@H](CO)NC(=O)[C@H](Cc1ccccc1)NC(=O)CN)C(=O)N[C@@H](Cc1ccccc1)C(=O)N[C@@H](CCCNC(=N)N)C(=O)NCC(=O)N[C@H](C(=O)N[C@@H](C)C(=O)N[C@@H](CCCCN)C(=O)N[C@@H](Cc1ccccc1)C(=O)N[C@@H](C)C(=O)N[C@@H](CO)C(=O)N[C@@H](CCCCN)C(=O)NCC(=O)N[C@@H](CC(C)C)C(=O)NCC(=O)N[C@@H](CCCCN)C(N)=O)C(C)C", "system": "ATCC 8739", "setting": "MIC", "quantity": "time to complete killing", "value": "120 min"}
{"SMILES": "CCCCCC(=O)NCC(=O)N[C@@H](CC(C)C)C(=O)N[C@@H](CC(C)C)C(=O)N[C@@H](CCCCN)C(=O)N[C@@H](CCCNC(=N)N)C(=O)N[C@H](C(=O)N[C@@H](CCCCN)C(=O)N[C@H](C(=O)N[C@@H](CC(C)C)C(=O)N[C@@H](CC(C)C)C(=O)NCCCC[C@H](NC(=O)[C@H](CCCCNC(=O)[C@H](CC(C)C)NC(=O)[C@H](CC(C)C)NC(=O)[C@@H](NC(=O)[C@H](CCCCN)NC(=O)[C@@H](NC(=O)[C@H](CCCNC(=N)N)NC(=O)[C@H](CCCCN)NC(=O)[C@H](CC(C)C)NC(=O)[C@H](CC(C)C)NC(=O)CNC(=O)CCCCC)[C@@H](C)CC)[C@@H](C)O)NC(=O)[C@H](CC(C)C)NC(=O)[C@H](CC(C)C)NC(=O)[C@@H](NC(=O)[C@H](CCCCN)NC(=O)[C@@H](NC(=O)[C@H](CCCNC(=N)N)NC(=O)[C@H](CCCCN)NC(=O)[C@H](CC(C)C)NC(=O)[C@H](CC(C)C)NC(=O)CNC(=O)CCCCC)[C@@H](C)CC)[C@@H](C)O)C(N)=O)[C@@H](C)O)[C@@H](C)CC", "assay": "checkerboard", "system": "ATCC 25922", "setting": "added: gentamicin", "quantity": "FIC index", "value": 0.5}
{"SMILES": "Cc1cc(=O)nc(NC(=O)NCCCCCCNC(=O)NCCCCCCNC(=O)OCCOCCOCCOCCOCCOCCOCC(=O)N[C@@H](CC(C)C)C(=O)N[C@@H](CCCCN)C(=O)N[C@@H](CC(C)C)C(=O)N[C@@H](CC(C)C)C(=O)N[C@@H](CCCCN)C(=O)N[C@@H](CCCCN)C(=O)N[C@@H](CC(C)C)C(=O)N[C@@H](CC(C)C)C(=O)N[C@@H](CCCCN)C(=O)N[C@@H](CCCCN)C(=O)N[C@@H](CC(C)C)C(=O)N[C@@H](CC(C)C)C(=O)N[C@@H](CCCCN)C(=O)N[C@@H](CC(C)C)C(=O)N[C@@H](CC(C)C)C(N)=O)[nH]1", "system": "ATCC 8937, RPMI medium", "setting": "24 h, 37 °C", "quantity": "LC99.9", "value": "1.9 to 3.7 µM"}
{"SMILES": "CCCCCCCCCC(=O)NCC(=O)N[C@@H](CC(C)C)C(=O)N[C@@H](CC(C)C)C(=O)N[C@@H](CCCCN)C(=O)N[C@@H](CCCNC(=N)N)C(=O)N[C@H](C(=O)N[C@@H](CCCCN)C(=O)N[C@H](C(=O)N[C@@H](CC(C)C)C(=O)N[C@@H](CC(C)C)C(N)=O)[C@@H](C)O)[C@@H](C)CC", "assay": "checkerboard", "system": "ATCC 25922", "setting": "added: rifampicin", "quantity": "FIC index", "value": 0.5}
{"SMILES": "CCCCCCCCCCCCCCCCC(=O)N[C@@H](CCCCN)C(=O)N[C@@H](CCCCN)C(=O)N[C@@H](CCCNC(=N)N)C(=O)N[C@@H](CCCCN)C(=O)N[C@@H](CCCCN)C(N)=O", "system": "K12", "quantity": "MBC", "value": "32 µg/mL"}
{"SMILES": "CNC(=O)c1cc(C(=O)NC)cc(-c2ccc(O[C@H]3O[C@H](CO)[C@@H](O)[C@H](O)[C@@H]3O)c(C)c2)c1", "assay": "biofilm formation, inhibitor", "system": "uropathogenic UTI89", "quantity": "IC50", "value": "120 nM"}
{"SMILES": "CC[C@H](C)[C@H](NC(=O)[C@H](CCCCN)NC(=O)[C@H](CCCCN)NC(=O)[C@H](CC(C)C)NC(=O)[C@H](CCCCN)NC(=O)[C@H](CCC(=O)O)NC(=O)[C@H](CCCCN)NC(=O)[C@@H](NC(=O)[C@H](CCCCN)NC(=O)[C@H](CC(N)=O)NC(=O)[C@H](CCCNC(=N)N)NC(=O)[C@H](Cc1ccccc1)NC(=O)[C@H](CCCCN)NC(=O)[C@H](CCCNC(=N)N)NC(=O)[C@H](CC(C)C)NC(=O)[C@H](CCCNC(=N)N)NC(=O)[C@H](CCCCN)NC(=O)[C@H](CCCNC(=N)N)NC(=O)[C@H](CC(C)C)NC(=O)CN)[C@@H](C)CC)C(=O)NCC(=O)N[C@@H](CCC(N)=O)C(=O)N[C@@H](CCCCN)C(=O)N[C@H](C(=O)N[C@@H](CCC(N)=O)C(=O)NCC(=O)N[C@@H](Cc1ccccc1)C(=O)N[C@H](C(=O)N1CCC[C@H]1C(=O)N[C@@H](CCCCN)C(=O)N[C@@H](CC(C)C)C(=O)N[C@@H](C)C(=O)N1CCC[C@H]1C(=O)N[C@@H](CCCNC(=N)N)C(=O)N[C@H](C(=O)N[C@@H](CC(=O)O)C(=O)N[C@@H](Cc1ccc(O)cc1)C(=O)O)[C@@H](C)O)C(C)C)[C@@H](C)CC", "assay": "inhibition zone", "system": "Am. J16c", "quantity": "lethal concentration", "value": "1.67 µM"}
{"SMILES": "ONCc1cc(C(F)(F)F)cc(C(F)(F)F)c1", "system": "preformed static biofilm", "setting": "2 x MIC, 72 h", "quantity": "biofilm removal", "value": "> 50%"}
{"note": "Some of these lines once more:"}
{"SMILES": "CCCCCCCCCCCCCCCCC(=O)N[C@@H](CCCCN)C(=O)N[C@@H](CCCCN)C(=O)N[C@@H](CCCNC(=N)N)C(=O)N[C@@H](CCCCN)C(=O)N[C@@H](CCCCN)C(N)=O", "system": "K12", "quantity": "MBC", "value": "32 µg/mL"}
{"SMILES": "CNC(=O)c1cc(C(=O)NC)cc(-c2ccc(O[C@H]3O[C@H](CO)[C@@H](O)[C@H](O)[C@@H]3O)c(C)c2)c1", "assay": "biofilm formation, inhibitor", "system": "uropathogenic UTI89", "quantity": "IC50", "value": "120 nM"}
